Assay results pooled from the literature.
A part holds a random share of what one study measured. Substitutions count along the parent as printed.

Series 1
Target: CCNB2, cyclin fold, Cln2 fusion (human)
Method: yeast growth competition, sequencing
Matrix: yeast
Notes: weak parent motif
Baseline: not given
Reading: higher = stronger binding
Endpoint: normalised enrichment score
Parent: MASTL docking peptide (human); PMIAKNLMCELDE; partner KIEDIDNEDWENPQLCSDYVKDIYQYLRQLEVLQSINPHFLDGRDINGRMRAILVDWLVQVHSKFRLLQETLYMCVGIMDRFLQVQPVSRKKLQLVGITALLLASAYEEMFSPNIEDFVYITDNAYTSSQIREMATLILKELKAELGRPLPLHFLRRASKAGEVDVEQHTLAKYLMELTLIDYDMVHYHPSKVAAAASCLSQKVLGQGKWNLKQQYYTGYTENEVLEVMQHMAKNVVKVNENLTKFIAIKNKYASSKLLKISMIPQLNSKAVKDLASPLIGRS
PMIAKNLMCALDE [E10A]: 0.321
PMIAKNLMCELLE [D12L]: 0.196
PMIAKNDMCELDE [L7D]: -0.093
PMIAKNLGCELDE [M8G]: -0.178
PMIAKNLACELDE [M8A]: 0.0524
PMIAKNLMCELAE [D12A]: 0.718
PMIAKNEMCELDE [L7E]: 0.366
PMIAKNLMCFLDE [E10F]: 0.145
PMIAFNLMCELDE [K5F]: -0.245
PMIDKNLMCELDE [A4D]: -0.157

Series 2
Target: RNA binding protein fox-1 homolog 2, RRM domain, GST-SBP tag (RBFOX2, Homo sapiens, UniProt O43251-10, residues 100-194)
Method: RNA Bind-n-Seq
Form: RNA
Matrix: in vitro
Tested at: 365 nM
Notes: natural RNA segment, single round, ends assumed
Baseline: no-protein control
Reading: higher = stronger binding
Endpoint: RBNS enrichment (R)
All sequences stand within: GGGAGUUCUACAGUCCGACGAUC … UGGAAUUCUCGGGUGCCAA
Residues (chain): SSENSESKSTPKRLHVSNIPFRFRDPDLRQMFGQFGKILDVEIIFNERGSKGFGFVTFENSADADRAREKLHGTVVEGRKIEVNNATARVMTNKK
AACACAUCCCUUCAGUGACUCAGAGUCUCAGAAGGAAACCCUGACUCCUGGGGCCAUUUCCUAAUGGUACUGUAAGCCAAGCAGCUUUGCUUCUGCCUCUGUUUCCAAGC: 0.219
AUUUCCCUAUAACCCUAUAAUUUUGUGAUGUCAUGUGCUGUACAGUUUUAAUGUGGUGAGCAGCCUAAGAACUUAAAGGUGUACGGUAUUUUGUUUAUAAAGAUGUUCAG: 0.637
AAAGGAAAUACUUCAAAACCUUGUUCAUUACCUAGACCAGUUAUUAUCUGUCUGGACAUAGUUGUGUUCCUCUAAAUUGGAUGUACUAAAUAGUUUACAAGUUAUCCUAC: 0.381
AAGUAUUUGAUAUCAUUGUACAUAAGAGUUUUCAGAGAUUUCAUAUAUAUCUUUUACAGAGGCUAUUUUAAUCUUUAGUGCAUGGUUAACAGAAAAAAAUUAUACAAUUU: 5.01
CCACCUCAGGGAAAAGGUAGAGGGGGCAGGUUAGAACUUGUGGUACAGUGAUAUUGGUCCAGUUCCUCCUGACUCUUCACUCUACCACCCAAAAGUCAAUGUAGACCUAC: 0.36
GGCAGGCUUUGACUGACCUCUCAUUCCCUUUGCACUGCUUCAGGUUAGUUCUAGUCCAUAAUGGCCUUUGAGCAGCAAGCUUUCAGAAGAUUAUAUUUGAGGAUUGUAGC: 0.679
GGGUGAAAUGAUUGACUUGUGACCUGCCAGGUUGCCCGAUGCCCUGUUGGGUCACCGGCUGGACCUGCUGCAGCCUGCAGAGCCACAGUCAGCCUGCCCACAUGCCACCG: 0.191
UGGUUACUUAUUAUCUAUUGUUUUAUACUUUCUAUGUUCAUUUCAAAUAAUGUUAAUGUUAUUCAAUCAUUUUCUGAAUUGUUAACUCUUAUUCUUUGGUUUAAAUACUG: 0.423

Series 3
Target: CREBRF, bZIP domain (human)
Method: DHFR protein complementation
Matrix: yeast
Notes: single substitutions, most at no-binding floor
Baseline: wild-type JUN-FOS pair
Reading: higher = stronger binding
Endpoint: binding fitness
Parent: JUN, bZIP domain (human); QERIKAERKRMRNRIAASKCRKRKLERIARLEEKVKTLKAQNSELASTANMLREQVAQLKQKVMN; partner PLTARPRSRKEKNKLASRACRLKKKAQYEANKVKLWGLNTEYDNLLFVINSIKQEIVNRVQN
S47E: -1.34 natural log
L59T: -1.44 natural log
A40M: -1.41 natural log
Q55Y: -1.32 natural log
A40N: -1.55 natural log
R53I: -1.52 natural log
M51K: -1.38 natural log
L31C: -1.52 natural log

Further values, each from its own experiment
PhoQ, residues 284 288 289 292 302 303 AGHLVA  fold induction (PhoP, residues 12 14 15 18 19 AGCRL (Escherichia coli, UniProt P23836); Sort-seq, refers to: YFP reporter; E. coli; PhoQ-PhoP variant library, with: 10 µM Mg2+; baseline: high Mg2+ state, higher = stronger signaling): 4.6

A few entries again (series 1):
PMIAKNLMCFLDE [E10F]: 0.145
PMIAFNLMCELDE [K5F]: -0.245
PMIDKNLMCELDE [A4D]: -0.157
